Results collected from several papers.
Organism: Staphylococcus aureus

SMILES	test	test system	conditions	MIC
COc1c(NC(=O)c2ccc(NC(=O)c3ccc(NC(=O)[C@H](Cc4c[nH]nn4)NC(=O)c4ccc(NC(=O)/C(C)=C/c5ccc(O)cc5)cc4)cc3)cc2)ccc(C(=O)O)c1O	broth microdilution	ciprofloxacin-sensitive		8 µg/mL
CCCCCCCCn1cc[n+](CCCCOc2cc(OCCCC[n+]3ccn(CCCCCCCC)c3)cc(OCCCC[n+]3ccn(CCCCCCCC)c3)c2)c1.[Br-].[Br-].[Br-]		CA-MRSA USA300-0114		0.5 µM
CN[C@H](CC(C)C)C(=O)N[C@H]1C(=O)N[C@@H](CC(N)=O)C(=O)N[C@H]2C(=O)N[C@H]3C(=O)N[C@H](C(=O)N[C@H](C(=O)N[C@@H](CCCNC(=N)N)C(N)=O)c4cc(O)cc(O)c4-c4cc3ccc4O)[C@H](O)c3ccc(c(Cl)c3)Oc3cc2cc(c3O[C@@H]2O[C@H](CO)[C@@H](O)[C@H](O)[C@H]2O[C@H]2C[C@](C)(NCc3ccc(OCc4cn(CC(=O)N[C@H](C(=O)N[C@@H](CCN)C(=O)N[C@H]5CCNC(=O)[C@H]([C@@H](C)O)NC(=O)[C@H](CCN)NC(=O)[C@H](CCN)NC(=O)[C@H](CC(C)C)NC(=O)[C@@H](CC(C)C)NC(=O)[C@H](CCN)NC5=O)[C@@H](C)O)nn4)c(OC)c3)[C@H](O)[C@H](C)O2)Oc2ccc(cc2Cl)[C@H]1O	broth microdilution	MSSA ATCC 29213, cation-adjusted Mueller-Hinton broth	20 to 24 h, 37 °C, 0.002% polysorbate 80	1 µg/mL
CC[C@H]1OC(=O)[C@H](C)[C@@H](OC(=O)Cc2ccc(N(C)C)cc2)[C@H](C)[C@@H](O[C@@H]2O[C@H](C)C[C@H](N(C)C)[C@H]2O)[C@](C)(OC)C[C@@H](C)C(=O)[C@H](C)[C@@H](O)[C@]1(C)O		ATCC 43300 MRSA		> 256 µg/mL
CC1C=CC=CC(C)C2C=CC3CC(C)(O)C(Cl)C(C)C3C2C(=O)C(Cl)(Cl)C(=O)C(C)C(=O)O1 (stereo not drawn)		MRSA clinical isolate	resistant OXA/SXT	0.05 µg/mL
CC[C@H]1OC(=O)[C@H](C)[C@@H](OC(=O)Cc2ccccc2Cl)[C@H](C)[C@@H](O[C@@H]2O[C@H](C)C[C@H](N(C)C)[C@H]2O)[C@](C)(OC)C[C@@H](C)C(=O)[C@H](C)[C@@H](O)[C@]1(C)O		BAA-977		2 µg/mL
CC[C@H](C)[C@H](N)C1=N[C@H](C(=O)N[C@@H](CC(C)C)C(=O)N[C@H](CCC(=O)O)C(=O)N[C@H](C(=O)N[C@H]2CCCCNC(=O)[C@H](CC(N)=O)NC(=O)[C@@H](CC(=O)O)NC(=O)[C@H](Cc3c[nH]cn3)NC(=O)[C@@H](Cc3ccccc3)NC(=O)[C@H]([C@@H](C)CC)NC(=O)[C@@H](CCCN)NC2=O)[C@@H](C)CC)CS1		ATCC 29213	added: EDTA 0.3 mM	> 64 µg/mL
CC[C@H]1OC(=O)[C@H](C)[C@@H](OC(=O)c2ccc(N)cc2)[C@H](C)[C@@H](O[C@@H]2O[C@H](C)C[C@H](N(C)C)[C@H]2O)[C@](C)(OC)C[C@@H](C)C(=O)[C@H](C)[C@@H](O)[C@]1(C)O		ATCC 43300 MRSA		> 256 µg/mL
CCCCCCCCCCCC[N+](C)(C)CCCCOc1cc(OCCCC[N+](C)(C)CCCCCCCCCCCC)cc(OCCCC[N+](C)(C)CCCCCCCCCCCC)c1.[Br-].[Br-].[Br-]		SH1000 MSSA		2 µM
Oc1c(Br)cc(Br)c2nc3cc(Cc4ccccc4)ccc3nc12		129 MRSA clinical isolate		0.39 µM
CCCCCCCCCCCC(=O)Oc1c(C)c(OC)c2c(/C=C/c3ccccc3)c(CCCCCCCCCC)c(=O)oc2c1C	microbial growth, broth dilution	ATCC25923		5000 µg/mL
CCCCCCCC[N+](C)(C)CCCCCCCCCCOc1cc(OCCCCCCCCCC[N+](C)(C)CCCCCCCC)cc(OCCCCCCCCCC[N+](C)(C)CCCCCCCC)c1.[Br-].[Br-].[Br-]		HA-MRSA ATCC 33591		16 µM
O=C(Nc1ccccc1)Nc1ccc(Cl)c(C(F)(F)F)c1	microbial growth	NCTC8325		3 µM
CC[C@H](C)[C@@H]1NC(=O)[C@@H]([C@@H](C)O)NC(=O)CNC(=O)[C@H](CC(=O)O)NC(=O)CNC(=O)[C@H](CC(=O)O)NC(=O)CNC(=O)[C@H]2CCCCN2C(=O)[C@@H](NC(=O)[C@H](CC(=O)O)NC(=O)/C=C/CCCCCCCCCC(C)C)CNC(=O)[C@@H]2CCCN2C1=O	broth microdilution	MRSA USA300, Mueller-Hinton broth, Mg2+ 10 mg/L	16 h, 37 °C, added: Ca2+ 10 mM	2 µg/mL
CC[C@H]1OC(=O)[C@H](C)[C@@H](OC(=O)Cc2ccc(Cl)cc2)[C@H](C)[C@@H](O[C@@H]2O[C@H](C)C[C@H](N(C)C)[C@H]2O)[C@](C)(OC)C[C@@H](C)C(=O)[C@H](C)[C@@H](O)[C@]1(C)O	microbial growth	BAA976		4 µg/mL
COc1cc2c(cc1OC)C1Cc3ccc(OC)c(OC)c3C[NH+]1CC2.[Cl][Fe-]([Cl])([Cl])[Cl] (stereo not drawn)			24 h, 37 °C	> 1600 µM
CCCCCC[N+](C)(C)CCCCCCOc1cc(OCCCCCC[N+](C)(C)CCCCCC)cc(OCCCCCC[N+](C)(C)CCCCCC)c1.[Br-].[Br-].[Br-]		HA-MRSA ATCC 33591		2 µM

SMILES	test	test system	conditions	MIC
CCCCCCCC(=O)N[C@@H](CC(N)=O)C(=O)N[C@H]1CNC(=O)[C@H](c2ccc(O)c(Cl)c2)NC(=O)[C@@H](C)NC(=O)[C@H](CC(C)C)NC(=O)CNC(=O)[C@H](c2ccc(O)cc2)NC(=O)[C@@H]([C@H](C)O)NC(=O)[C@H](c2ccc(O)cc2)NC(=O)[C@@H](CCCN)NC(=O)[C@H](Cc2ccccc2)NC(=O)[C@H]([C@@H](C)O)NC(=O)[C@@H](c2ccc(O)cc2)NC(=O)[C@H](c2ccc(O)cc2)NC(=O)[C@@H]([C@H](C)O)NC(=O)[C@@H](CCCN)NC(=O)[C@@H](c2ccc(N)cc2)NC1=O		MSSA ATCC 29213		> 16 µM
CC[C@H]1OC(=O)[C@H](C)[C@@H](OC(=O)Cc2ccc(N)cc2)[C@H](C)[C@@H](O[C@@H]2O[C@H](C)C[C@H](N(C)C)[C@H]2O)[C@](C)(OC)C[C@@H](C)C(=O)[C@H](C)[C@@H](O)[C@]1(C)O	microbial growth	BAA976		16 µg/mL
CC[C@H](C)[C@H](N)C(=O)N1CCC[C@H]1C(=O)N[C@@H](Cc1ccccc1)C(=O)N[C@@H](Cc1c[nH]c2ccccc12)C(=O)N[C@@H](CCCNC(=N)N)C(=O)N[C@@H](Cc1c[nH]c2ccccc12)C(=O)N[C@@H](CC(C)C)C(=O)N[C@@H](CC(C)C)C(=O)N[C@@H](CCC(N)=O)C(=O)N[C@@H](CCCNC(=N)N)C(=O)N[C@@H](CC(C)C)C(=O)N1CCC[C@H]1C(=O)NCC(=O)O	broth microdilution	ATCC 29213	16 h, 37 °C, cation-adjusted Mueller-Hinton broth	32 µg/mL
CCCCCCCCCC[N+](C)(C)CCCCCCCCOc1cc(OCCCCCCCC[N+](C)(C)CCCCCCCCCC)cc(OCCCCCCCC[N+](C)(C)CCCCCCCCCC)c1.[Br-].[Br-].[Br-]		CA-MRSA USA300-0114		2 µM
CN[C@H](CC(C)C)C(=O)N[C@H]1C(=O)N[C@@H](CC(N)=O)C(=O)N[C@H]2C(=O)N[C@H]3C(=O)N[C@H](C(=O)N[C@H](C(=O)NCc4cn(CC(=O)N[C@H](C(=O)N[C@@H](CCN)C(=O)N[C@H]5CCNC(=O)[C@H]([C@@H](C)O)NC(=O)[C@H](CCN)NC(=O)[C@H](CCN)NC(=O)[C@H](CC(C)C)NC(=O)[C@@H](CC(C)C)NC(=O)[C@H](CCN)NC5=O)[C@@H](C)O)nn4)c4cc(O)cc(O)c4-c4cc3ccc4O)[C@H](O)c3ccc(c(Cl)c3)Oc3cc2cc(c3O[C@@H]2O[C@H](CO)[C@@H](O)[C@H](O)[C@H]2O[C@H]2C[C@](C)(N)[C@H](O)[C@H](C)O2)Oc2ccc(cc2Cl)[C@H]1O	broth microdilution	MRSA USA300, cation-adjusted Mueller-Hinton broth	20 to 24 h, 37 °C, 0.002% polysorbate 80	0.5 µg/mL
COc1c(C)c(OS(=O)(=O)c2ccccc2)c(C)c2c1C(=O)CC(c1ccccc1)O2 (stereo not drawn)	microbial growth, broth dilution	ATCC25923		5000 µg/mL
COc1c(NC(=O)c2ccc(NC(=O)c3ccc(NC(=O)[C@H](Cc4c[nH]nn4)NC(=O)c4ccc(NC(=O)/C(C)=C/c5ccc(O)cc5)cc4)cc3)cc2O)ccc(C(=O)O)c1O	broth microdilution	ciprofloxacin-resistant		32 µg/mL
CC[C@H]1OC(=O)[C@H](C)[C@@H](OC(=O)Cc2c(F)cc([N+](=O)[O-])cc2F)[C@H](C)[C@@H](O[C@@H]2O[C@H](C)C[C@H](N(C)C)[C@H]2O)[C@](C)(OC)C[C@@H](C)C(=O)[C@H](C)[C@@H](O)[C@]1(C)O	microbial growth	BAA976		0.5 µg/mL
CCCCCCn1cc[n+](CCCCCCOc2cc(OCCCCCC[n+]3ccn(CCCCCC)c3)cc(OCCCCCC[n+]3ccn(CCCCCC)c3)c2)c1.[Br-].[Br-].[Br-]		HA-MRSA ATCC 33591		0.5 µM
CC[C@H]1OC(=O)[C@H](C)[C@@H](O[C@H]2C[C@@](C)(OC)[C@@H](O)[C@H](C)O2)[C@H](C)[C@@H](O[C@@H]2O[C@H](C)C[C@H](N(C)C)[C@H]2O)[C@](C)(OC)C[C@@H](C)C(=O)[C@H](C)[C@@H](O)[C@]1(C)O		BAA-977		8 µg/mL
CCC(CC)c1cc(CCN2CCCN(S(=O)(=O)c3cccc4cccnc34)CC2)nc(-c2ccccn2)n1	microbial growth, broth dilution	ATCC29213		> 16 µg/mL
COc1cc(C(=O)O)ccc1NC(=O)c1ccc(NC(=O)c2ccc(NC(=O)[C@H](Cc3c[nH]nn3)NC(=O)c3ccc(NC(=O)/C(C)=C/c4ccc(O)cc4)cc3)cc2)c(OC)c1O	broth microdilution	ciprofloxacin-resistant		4 µg/mL
CCCCCCCC[N+](C)(C)CCCCOc1cc(OCCCC[N+](C)(C)CCCCCCCC)cc(OCCCC[N+](C)(C)CCCCCCCC)c1.[Br-].[Br-].[Br-]		SH1000 MSSA		0.5 µM
CCCC/C=C/C(=O)N[C@@H](Cc1cc(F)cc(F)c1)C(=O)N[C@@H]1C(=O)N2CCC[C@H]2C(=O)N2CC[C@H](C)C[C@H]2C(=O)N[C@@H](C)C(=O)N2CCC[C@H]2C(=O)O[C@H]1C	microbial growth, broth dilution			0.024 µg/mL
CCCCCCCCCCn1cc[n+](CCCCCCCCOc2cc(OCCCCCCCC[n+]3ccn(CCCCCCCCCC)c3)cc(OCCCCCCCC[n+]3ccn(CCCCCCCCCC)c3)c2)c1.[Br-].[Br-].[Br-]		SH1000 MSSA		2 µM
N=C(N)NCCC[C@@H]1NC(=O)[C@H](CCCNC(=N)N)NC(=O)[C@H](CCCNC(=N)N)NC(=O)[C@@H](CCCNC(=N)N)NC(=O)[C@H](Cc2ccc3ccccc3c2)NC(=O)[C@H](Cc2ccc3ccccc3c2)NC(=O)[C@H](Cc2ccc3ccccc3c2)NC1=O		ATCC 29213, MSSA		4 µg/mL
